# Results collected from several papers.
# Numbered parts are unrelated; each lists some results of a single study.

# Block 1 — method: protein binding microarray; molecule type: double-stranded DNA, one strand shown; matrix: in vitro; concentration: not given; reference: not given; direction: higher = stronger binding
# Target: Histone acetyltransferase KAT6A, winged helix 2, GST fusion (KAT6A, Homo sapiens, UniProt Q92794, residues 85-181)
# Notes: 8-mer, flanks averaged, mean of 2 arrays, mostly near background
# Construct (chain): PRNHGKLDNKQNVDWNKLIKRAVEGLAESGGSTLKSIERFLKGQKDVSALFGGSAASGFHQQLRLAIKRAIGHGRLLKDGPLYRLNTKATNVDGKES
Oligonucleotide,E-score
TACGACCA,-0.0248
AAGAGAGC,-0.0284
TGATTGAA,-0.0602
ATGCCGAA,0.023
ACCAAAAG,0.0478
CACAATCA,-0.0105
AGGTCTCA,-0.0377
GACTTTGC,-0.114
AGTCTCGG,-0.201
AACTACAC,0.00938
AACCATCA,-0.0855
ATCAAGAG,-0.0723
AACTCTTC,-0.0738
ACACGTAG,-0.275
AAAATACG,-0.107
ACAGTTGG,-0.0341
GAGGCCTA,-0.128

# Block 2 — method: RNA Bind-n-Seq; molecule type: RNA; matrix: in vitro; concentration: 365 nM; reference: no-protein control; direction: higher = stronger binding
# Target: RNA binding protein fox-1 homolog 2, RRM domain, GST-SBP tag (RBFOX2, Homo sapiens, UniProt O43251-10, residues 100-194)
# Notes: natural RNA segment, single round, ends assumed
# Constant ends, left off below: GGGAGUUCUACAGUCCGACGAUC … UGGAAUUCUCGGGUGCCAA
# Construct (chain): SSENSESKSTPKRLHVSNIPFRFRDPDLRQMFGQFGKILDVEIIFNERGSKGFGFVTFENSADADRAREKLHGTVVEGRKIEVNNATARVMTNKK
Oligonucleotide,RBNS enrichment (R)
CGCACUGAGAACGCCUGCCAGCUUCCCCAUGCCCUCACUUGGUUUGUGUUUUAGGUUAAGUAGUCAAUGCCCACAUCACUUCACUGUCUCAAGACUGAGCACUUCACUAA,0.486
UGUUGCUAAAUACUAUUUAUGUAAGUCUGAAAAGGUUUUUAACCCAUAUAAAACAUUUAAAUAAUGCAGGUUAUUAUGAGCAAGUUAGCUUUGAGAACCCUCCUUUUAGU,0.439
GGUAGCAUGGGUGGUUCAUCAGAGCAGUGGUGGCUCUUGCCUGGCAGUCAGCCCCUUCAAGUCUGGACAGCCCUGGAGUUCUGGUCCCCUCUCCUAGCACUGUACCUUUA,1.12
UUUGUCUUUUUCCUUUAUUCUUUUUGUAAAUAUAUAUAUAAUGAGUUUCAUUAAAAUAGAUUAUCCCACACGACUUGUACUGCUAGUUAUUCUUCCCAGGCCACCUUGUU,0.923
UUAUAAGUUUAAGGUCAGCUGUCAAAAGGAUAACCUGUGGGGUUAGAACAUAUCACAUUGCAACACCCUAAAUUGUUUUUAAUACAUUAGCAAUCUAUUGGGUCAACUGA,0.341
ACUUUCUGUCAAGAUAUUUACCCGUGUCAAAUUCAAACUACAGUACUGUGUAAUUAUGUAUAAAGUUUUUUUAUUUAUUUGAAGUUAGACUAGAUAUACGUUUUUAAAUU,0.891
UGAAAAAUGCUAUUAGCUGAACCACAUCCACAACAGCACAUAGAGCUCUAGAAGAGUUGAAACAUAGAUCAUUGAAGGUUAAAAAUCCUCUUCCAAAGCAGCAAGUCAAU,0.428
UCUCUAGUAGUUAUUUUAAUCUUUAUUUUAACCUGGAUUGCAAAUGUAUGGGGUAUGAGGAGAUAAUGAAAGAAAAGUGGUCCUCAUGCUGGAUAUGUGACUGUUUUGUU,1.87
UGGUUCCACGCCCCCUUCCGAGCUGACCACUGGAUGCUCUAUGAAUGCGAGAGCCCCUGGGCCGGUGGCUCUCGGGGGCUGGUCCAUGGGCGGCUGUGGCGUCAGGAUGG,2
UUCCAGCGGUGUCUUGGGUACCGGGCUCUGUGGCUAGAUCGGUUGCUUCAGGAACUUAAUGCCACUCAGUUCAACAUCACAGGUGAAAUCAUGUCUCAGUUCCCAUCUAG,0.37
GAAGAAACAACAAAGGCAGGAGAACAGCCACUUUCAGACUUGAAAAUGACAAAACCCUCAGUUGAGCCUGAGCCCCCGGCGCGGGGGCUGCUACACUACAGGACACCCAG,0.275
ACAUGCUGACUGUCCUCUCCCCUCCAGCCUUUGGCCUUGGCUUUUCUAGCCUAUUUACCUGCAGGCUGAGCCACUCUCUUCCCUUUCCCCAGCAUCACUCCCCAAGGAAG,0.376

# Block 3 — method: RNA Bind-n-Seq; molecule type: RNA; matrix: in vitro; concentration: 200 nM; notes: whole 134-nt RNA, ends assumed; together with: 150 mM KCl; reference: input library; direction: higher = stronger binding
# Target: Fragile X messenger ribonucleoprotein 1, C-terminal low-complexity region (Fmr1, Mus musculus, UniProt P35922)
# Constant ends, left off below: GGGAGUUCUACAGUCCGACGAUC … UGGAAUUCUCGGGUGUCAAGG
Oligonucleotide,log2 enrichment
UAACUGUAGAGGAGGAUCUGAUGGAUAUGGCAGUGGACGUGGAUUUGGGGAUGGCUAUAAUGGGUAUGGAGGAGGACCUGGAGGUGGCAA,0.399
UGUGCUACACAUCGUAUGUACCGAAUCGGGGCCCCCCCGGGGCCCCCCCGGGGCCCCCCCGGGAAAGUAUUAUGUUACGCCGUUCGGAUC,-1.67
GUCCUGUGCUACACAUCGUAUGUACCGAAUCGGGAAAAAGGGAAAAAGGAAAAAGGGGAAAGUAUUAUGUUACGCCGUUCGGAUCUGCAC,-0.357
AGUCCUGUGCUACACAUCGUAUGUACCGAAUCGGGUGGGUUUUUGGGAAAAAAAGGGAAAGUAUUAUGUUACGCCGUUCGGAUCUGCACU,0.192
UCAAGUCCUGUGCUACACAUCGUAUGUACCGAAUCGGUGGUUUGGAAAAAAAGGAAAGUAUUAUGUUACGCCGUUCGGAUCUGCACUUCC,-0.447
UCCUCAAGUCCUGUGCUACACAUCGUAUGUACCGAAUCGGAGGAGGGAGGGGAAAGUAUUAUGUUACGCCGUUCGGAUCUGCACUUCCAG,0.347
CUCAAGUCCUGUGCUACACAUCGUAUGUACCGAAUCGGCCGGCCGGGGCCGGGGAAAGUAUUAUGUUACGCCGUUCGGAUCUGCACUUCC,-0.4
UGGCCCUGGUGGCAUGCGGGGAGGAAGAGGUGGCCUCAUGGAUCGUGGUGGUCCCGGUGGAAUGUUCAGAGGUGGCCAUGGUGGAGACAG,-0.15
AGUCCUGUGCUACACAUCGUAUGUACCGAAUCGGGUUUUUGGGUUUUUGGGUUUUUGGAAAGUAUUAUGUUACGCCGUUCGGAUCUGCAC,-0.206
CCUGUGCUACACAUCGUAUGUACCGAAUCGGAAAAAAAGGGGAAAAAAAGGAAAAAAAGGGAAAGUAUUAUGUUACGCCGUUCGGAUCUG,-0.876

# Block 4 — method: universal PBM; molecule type: double-stranded DNA, one strand shown; matrix: in vitro; concentration: not given; direction: higher = stronger binding
# Target: Sal-like protein 4, full length isoform B (SALL4, Homo sapiens, UniProt Q9UJQ4-2, residues 1-616)
# Notes: 8-mer, flanks averaged, mean of replicates
# Construct (chain): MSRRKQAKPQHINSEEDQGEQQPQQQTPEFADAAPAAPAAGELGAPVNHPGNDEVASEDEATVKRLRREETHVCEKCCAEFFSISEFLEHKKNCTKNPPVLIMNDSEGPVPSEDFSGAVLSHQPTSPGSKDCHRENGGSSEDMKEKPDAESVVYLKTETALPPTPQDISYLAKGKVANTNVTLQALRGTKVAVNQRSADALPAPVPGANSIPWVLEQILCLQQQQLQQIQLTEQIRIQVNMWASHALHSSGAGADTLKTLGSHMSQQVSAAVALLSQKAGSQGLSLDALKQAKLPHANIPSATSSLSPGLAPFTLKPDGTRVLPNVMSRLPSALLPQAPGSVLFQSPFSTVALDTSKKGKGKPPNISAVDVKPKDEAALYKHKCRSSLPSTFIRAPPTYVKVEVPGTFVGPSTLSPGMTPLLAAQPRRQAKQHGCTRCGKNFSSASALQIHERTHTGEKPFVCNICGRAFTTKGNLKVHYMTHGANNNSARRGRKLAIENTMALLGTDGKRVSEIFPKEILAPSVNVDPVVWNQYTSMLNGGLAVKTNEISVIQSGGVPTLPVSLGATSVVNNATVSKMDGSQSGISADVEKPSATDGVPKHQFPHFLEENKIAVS
Oligonucleotide,E-score
AAATCGGG,0.0334
ACTCCCAC,-0.152
CTTCGCCC,-0.243
AAAAATTG,0.424
CCCCCATA,0.131
CTAGAGTA,-0.0232
AGACTGCG,-0.209
CGTCGGGC,-0.319
CGCACGAA,-0.0743
CAGTTGAG,-0.182
GTGGGCTA,-0.0463
CAGAGATA,0.201
AAACACAA,0.274
AACTTGGA,-0.0335
CAACAACA,0.186
CCGGGCTA,-0.421
CACGGGAC,-0.15
CGTGGGTA,-0.296
CCCGCCGC,-0.397
AGATGTTC,0.0706
CTGTGGCA,-0.101
CCAAAGTC,-0.0546
ATGTGTTG,0.267
CGGAGAAG,-0.221
AAGCAAGG,-0.15

# Excerpt of the above (block 4):
Oligonucleotide,E-score
CGCACGAA,-0.0743
AAATCGGG,0.0334
CCCCCATA,0.131
AAACACAA,0.274
